Results pooled from the literature.
Numbered parts are unrelated; each lists some results of a single study.
Chain of UniProt Q8N568 (whole entry, looked up): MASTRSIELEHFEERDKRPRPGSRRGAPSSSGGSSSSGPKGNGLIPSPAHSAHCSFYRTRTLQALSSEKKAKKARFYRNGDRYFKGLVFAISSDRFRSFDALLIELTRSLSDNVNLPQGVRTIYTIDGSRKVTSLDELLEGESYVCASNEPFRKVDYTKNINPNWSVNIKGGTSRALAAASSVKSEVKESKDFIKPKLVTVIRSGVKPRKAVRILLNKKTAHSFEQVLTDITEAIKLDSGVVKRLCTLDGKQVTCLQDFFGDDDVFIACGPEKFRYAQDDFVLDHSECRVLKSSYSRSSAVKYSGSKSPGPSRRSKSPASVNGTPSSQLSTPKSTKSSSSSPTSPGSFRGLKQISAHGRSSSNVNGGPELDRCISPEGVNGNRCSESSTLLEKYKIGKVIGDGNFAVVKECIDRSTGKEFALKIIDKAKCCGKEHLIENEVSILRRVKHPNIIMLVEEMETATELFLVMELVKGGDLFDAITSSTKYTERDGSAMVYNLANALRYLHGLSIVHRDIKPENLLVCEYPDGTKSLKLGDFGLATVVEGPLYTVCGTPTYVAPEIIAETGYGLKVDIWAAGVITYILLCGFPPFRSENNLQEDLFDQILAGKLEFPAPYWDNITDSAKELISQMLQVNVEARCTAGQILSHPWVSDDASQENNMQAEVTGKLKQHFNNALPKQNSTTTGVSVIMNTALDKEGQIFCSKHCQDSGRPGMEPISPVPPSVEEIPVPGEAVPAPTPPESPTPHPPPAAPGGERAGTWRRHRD
Chain of UniProt Q9BZL6 (whole entry, looked up): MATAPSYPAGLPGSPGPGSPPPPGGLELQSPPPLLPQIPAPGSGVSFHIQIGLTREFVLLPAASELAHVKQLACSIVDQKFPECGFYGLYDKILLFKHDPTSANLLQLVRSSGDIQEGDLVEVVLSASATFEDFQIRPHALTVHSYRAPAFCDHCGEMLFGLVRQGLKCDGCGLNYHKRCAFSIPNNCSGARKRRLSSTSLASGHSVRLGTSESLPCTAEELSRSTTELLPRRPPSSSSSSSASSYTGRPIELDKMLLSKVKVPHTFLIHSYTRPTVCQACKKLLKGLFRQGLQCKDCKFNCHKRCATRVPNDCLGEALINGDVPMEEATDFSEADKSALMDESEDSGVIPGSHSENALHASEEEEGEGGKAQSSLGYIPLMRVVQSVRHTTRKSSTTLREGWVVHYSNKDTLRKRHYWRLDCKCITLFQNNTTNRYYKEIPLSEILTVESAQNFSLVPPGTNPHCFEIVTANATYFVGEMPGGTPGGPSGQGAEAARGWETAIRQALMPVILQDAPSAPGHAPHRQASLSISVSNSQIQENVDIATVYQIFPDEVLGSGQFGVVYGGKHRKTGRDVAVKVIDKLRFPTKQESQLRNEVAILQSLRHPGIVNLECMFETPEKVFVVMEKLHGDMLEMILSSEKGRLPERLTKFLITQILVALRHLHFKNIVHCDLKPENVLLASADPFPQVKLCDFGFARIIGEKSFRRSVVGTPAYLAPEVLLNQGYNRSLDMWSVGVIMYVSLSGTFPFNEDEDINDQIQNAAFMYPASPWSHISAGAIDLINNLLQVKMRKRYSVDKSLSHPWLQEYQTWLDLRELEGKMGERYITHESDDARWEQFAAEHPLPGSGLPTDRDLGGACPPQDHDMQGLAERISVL
Chain of UniProt P31152 (whole entry, looked up): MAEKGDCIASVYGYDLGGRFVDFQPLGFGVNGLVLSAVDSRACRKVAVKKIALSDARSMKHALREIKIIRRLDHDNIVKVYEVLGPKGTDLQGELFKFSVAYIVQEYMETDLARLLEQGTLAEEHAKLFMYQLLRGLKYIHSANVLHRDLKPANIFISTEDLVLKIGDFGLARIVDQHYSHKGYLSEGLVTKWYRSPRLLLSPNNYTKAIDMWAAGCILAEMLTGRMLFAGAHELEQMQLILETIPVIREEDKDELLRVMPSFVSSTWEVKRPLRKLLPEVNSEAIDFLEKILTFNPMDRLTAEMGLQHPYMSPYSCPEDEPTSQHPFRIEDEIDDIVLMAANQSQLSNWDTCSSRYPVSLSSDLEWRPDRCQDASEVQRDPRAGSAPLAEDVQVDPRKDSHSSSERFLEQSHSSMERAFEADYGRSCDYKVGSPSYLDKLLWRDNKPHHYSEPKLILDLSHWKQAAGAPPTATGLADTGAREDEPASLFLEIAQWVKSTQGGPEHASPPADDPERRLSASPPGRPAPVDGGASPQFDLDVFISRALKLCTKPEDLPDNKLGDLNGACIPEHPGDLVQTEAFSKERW
Chain of UniProt P24723 (whole entry, looked up): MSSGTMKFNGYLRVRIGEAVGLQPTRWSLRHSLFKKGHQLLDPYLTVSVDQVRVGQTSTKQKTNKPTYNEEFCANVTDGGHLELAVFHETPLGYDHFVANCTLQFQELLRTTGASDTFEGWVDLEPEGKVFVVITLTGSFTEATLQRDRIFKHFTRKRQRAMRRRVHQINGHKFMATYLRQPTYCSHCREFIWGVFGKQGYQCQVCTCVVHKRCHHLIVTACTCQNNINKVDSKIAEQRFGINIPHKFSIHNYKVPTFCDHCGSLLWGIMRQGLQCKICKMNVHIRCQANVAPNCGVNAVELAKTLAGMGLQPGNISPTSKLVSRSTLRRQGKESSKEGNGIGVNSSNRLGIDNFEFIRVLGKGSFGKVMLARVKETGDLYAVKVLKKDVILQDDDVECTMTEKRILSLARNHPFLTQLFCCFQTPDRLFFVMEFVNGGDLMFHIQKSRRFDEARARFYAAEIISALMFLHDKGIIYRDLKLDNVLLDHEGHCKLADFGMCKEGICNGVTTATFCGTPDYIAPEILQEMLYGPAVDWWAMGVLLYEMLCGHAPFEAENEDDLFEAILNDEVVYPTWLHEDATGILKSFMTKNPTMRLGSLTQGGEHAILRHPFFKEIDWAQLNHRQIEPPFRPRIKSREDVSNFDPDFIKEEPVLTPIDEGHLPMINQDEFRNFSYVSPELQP
Chain of UniProt Q07002 (whole entry, looked up): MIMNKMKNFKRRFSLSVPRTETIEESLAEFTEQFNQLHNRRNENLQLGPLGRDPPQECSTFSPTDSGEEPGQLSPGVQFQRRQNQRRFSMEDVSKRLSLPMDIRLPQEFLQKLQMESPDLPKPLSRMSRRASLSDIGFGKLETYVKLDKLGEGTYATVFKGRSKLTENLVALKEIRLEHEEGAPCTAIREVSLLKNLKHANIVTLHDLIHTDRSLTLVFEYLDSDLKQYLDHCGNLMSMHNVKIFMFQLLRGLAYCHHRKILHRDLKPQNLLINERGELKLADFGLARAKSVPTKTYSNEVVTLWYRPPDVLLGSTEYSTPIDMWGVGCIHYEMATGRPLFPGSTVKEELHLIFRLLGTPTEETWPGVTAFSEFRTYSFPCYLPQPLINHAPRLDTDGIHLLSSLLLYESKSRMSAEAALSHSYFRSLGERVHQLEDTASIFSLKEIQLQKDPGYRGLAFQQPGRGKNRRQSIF
Chain of UniProt P00519 (whole entry, looked up): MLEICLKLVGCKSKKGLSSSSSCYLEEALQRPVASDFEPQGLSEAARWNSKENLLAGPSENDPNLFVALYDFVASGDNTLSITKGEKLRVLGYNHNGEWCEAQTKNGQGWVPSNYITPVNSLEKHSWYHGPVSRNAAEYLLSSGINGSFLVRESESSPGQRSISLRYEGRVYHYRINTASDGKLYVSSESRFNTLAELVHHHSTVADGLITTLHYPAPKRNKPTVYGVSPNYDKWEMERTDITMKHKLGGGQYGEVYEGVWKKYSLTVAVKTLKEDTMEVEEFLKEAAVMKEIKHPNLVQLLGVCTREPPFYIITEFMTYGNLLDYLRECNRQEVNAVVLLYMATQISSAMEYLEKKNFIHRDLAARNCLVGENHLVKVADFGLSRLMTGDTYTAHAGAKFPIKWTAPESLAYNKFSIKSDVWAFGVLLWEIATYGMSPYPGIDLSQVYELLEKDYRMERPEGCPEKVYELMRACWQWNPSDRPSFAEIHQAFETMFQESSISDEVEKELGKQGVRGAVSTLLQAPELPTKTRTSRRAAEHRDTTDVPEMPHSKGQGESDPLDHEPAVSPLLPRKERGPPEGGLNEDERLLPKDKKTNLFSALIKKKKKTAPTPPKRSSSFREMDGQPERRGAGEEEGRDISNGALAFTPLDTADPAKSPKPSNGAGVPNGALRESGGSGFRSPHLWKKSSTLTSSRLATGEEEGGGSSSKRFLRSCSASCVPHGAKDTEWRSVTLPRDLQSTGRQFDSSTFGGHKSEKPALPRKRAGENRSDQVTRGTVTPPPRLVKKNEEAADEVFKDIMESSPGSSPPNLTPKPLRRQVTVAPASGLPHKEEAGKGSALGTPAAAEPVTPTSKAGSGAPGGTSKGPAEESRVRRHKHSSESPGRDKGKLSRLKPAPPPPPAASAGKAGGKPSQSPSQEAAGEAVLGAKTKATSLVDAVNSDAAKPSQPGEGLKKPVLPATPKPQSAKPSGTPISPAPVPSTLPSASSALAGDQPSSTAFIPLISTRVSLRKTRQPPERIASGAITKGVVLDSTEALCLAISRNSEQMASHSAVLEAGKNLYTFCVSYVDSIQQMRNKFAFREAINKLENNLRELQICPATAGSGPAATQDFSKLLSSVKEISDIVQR

Sample 1
Compound: O=C1NC(=O)C(c2cn(-c3ccccc3)nc2-c2ccc(F)cc2)N1 (centres unmarked)
Action: inhibitor
Tested at: 5 µM
For Proto-oncogene tyrosine-protein kinase receptor Ret (RET, Homo sapiens, UniProt P07949); kinase-CDC37 interaction; human cells; baseline: vehicle: “log2 fold change” read -0.358.
The “log2 fold change” was -0.232 (RAC-beta serine/threonine-protein kinase (AKT2, Homo sapiens, UniProt P31751, R274H); kinase–CDC37 interaction; AKT2 R274H mutant; baseline: vehicle).
The “log2 fold change” was -0.208 (Serine/threonine-protein kinase B-raf (BRAF, Homo sapiens, UniProt P15056, G469A); cell-based kinome profiling; human cells; baseline: vehicle control).
For Serine/threonine-protein kinase DCLK2 (DCLK2, Homo sapiens, UniProt Q8N568); human cells; baseline: vehicle: “log2 fold change” read -0.636.
For Protein kinase C eta type, with CDC37 (PRKCH, Homo sapiens, UniProt P24723); cell-based kinome screen; human cells; baseline: untreated control: “log2 fold change” read -0.166.
For Cyclin-dependent kinase 18 (CDK18, Homo sapiens, UniProt Q07002); human cells; baseline: vehicle: “log2 fold change” read -0.395.
It gave 0.101 for “log2 fold change” (Testis-specific serine/threonine-protein kinase 3 (TSSK3, Homo sapiens, UniProt Q96PN8); kinase-CDC37 interaction; human cells; baseline: vehicle).
For Mitogen-activated protein kinase 4 (MAPK4, Homo sapiens, UniProt P31152); cell-based kinome screen; human cells; baseline: untreated control: “log2 fold change” read -0.172 log2.
For Serine/threonine-protein kinase Sgk1, with CDC37 (SGK1, Homo sapiens, UniProt O00141); kinase activity; cell-based kinome screen; baseline: vehicle: “log2 fold change” read 0.241.

Sample 2
Compound: O=C(N1CCS(=O)(=O)CC1)N1C[C@H](c2ccc(OC(F)(F)F)cc2)C[C@H](c2nc(C3CC3)no2)C1
Effect on: cell-free assay
Method: competition with immobilised ligand
Tested at: 1 µM
The remaining binding was 84% (Tyrosine-protein kinase ABL1, non-phosphorylated (ABL1, Homo sapiens, UniProt P00519)).
Serine/threonine-protein kinase D2 (PRKD2, Homo sapiens, UniProt Q9BZL6) — remaining binding: 100%.
The remaining binding was 100% (Dual specificity mitogen-activated protein kinase kinase 3 (MAP2K3, Homo sapiens, UniProt P46734)).
Serine/threonine-protein kinase Nek6 (NEK6, Homo sapiens, UniProt Q9HC98) — remaining binding: 98%.
It gave 100% for remaining binding (Casein kinase I isoform gamma-3 (CSNK1G3, Homo sapiens, UniProt Q9Y6M4)).

Sample 3
Target: Serine/threonine-protein kinase A-Raf (ARAF, Homo sapiens, UniProt P10398)
Effect on: enzyme activity
Action: inhibitor
Tested at: 0.5 µM
Baseline: control
Residues (P10398 1-606): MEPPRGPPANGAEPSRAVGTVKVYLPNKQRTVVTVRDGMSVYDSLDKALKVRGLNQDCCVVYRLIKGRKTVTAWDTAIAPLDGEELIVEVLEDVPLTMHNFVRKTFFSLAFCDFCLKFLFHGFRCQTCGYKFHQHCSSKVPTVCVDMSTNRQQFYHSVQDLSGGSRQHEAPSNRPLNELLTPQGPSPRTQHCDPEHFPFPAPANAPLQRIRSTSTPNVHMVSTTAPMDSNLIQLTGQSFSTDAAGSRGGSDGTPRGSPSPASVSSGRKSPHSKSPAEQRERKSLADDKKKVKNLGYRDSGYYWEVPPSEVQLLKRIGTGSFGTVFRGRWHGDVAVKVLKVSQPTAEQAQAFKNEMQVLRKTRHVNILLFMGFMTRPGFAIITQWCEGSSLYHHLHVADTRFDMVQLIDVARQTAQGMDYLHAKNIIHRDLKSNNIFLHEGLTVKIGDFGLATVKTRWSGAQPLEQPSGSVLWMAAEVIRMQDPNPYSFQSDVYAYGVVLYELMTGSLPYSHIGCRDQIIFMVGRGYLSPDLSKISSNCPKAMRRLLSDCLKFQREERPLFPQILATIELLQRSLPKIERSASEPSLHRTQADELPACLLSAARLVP
With `O=C(CCCc1ccc(-c2ccccc2F)cc1)Nc1ccc(O)cc1` the remaining activity was 104%.
For `Cc1cccc(-c2[nH]c(C(C)(C)C)nc2-c2ccc3c(c2)OCO3)n1`, the remaining activity was 99.2%.
`COc1cc2ncnc(Nc3ccc(F)c(Cl)c3)c2cc1OCCCN1CCOCC1` has a remaining activity of 95.3%.
For `CN(C)c1ccc(C=C2C(=O)Nc3ccccc32)cc1`, the remaining activity was 94.3%.
For `COc1ccc(CNC(=O)Nc2ncc([N+](=O)[O-])s2)cc1`, the remaining activity was 91%.
The remaining activity of `Nc1[nH]nc2nc3ccccc3nc12` is reported as 119%.
For `CCOC(=O)c1c(C)[nH]c(/C=C2\C(=O)Nc3ccccc32)c1C`, the remaining activity was 94.7%.
The remaining activity of `Nc1ncnc2n[nH]c(Nc3ccc(F)cc3)c12` is reported as 80.7%.
For `O=C(Nc1cccc(Nc2cc(Nc3cccc(C(F)(F)F)c3)ncn2)c1)C1CC1`, the remaining activity was 95.1%.
`OCC(O)CCON=C1C(c2c(O)[nH]c3ccccc23)=Nc2ccccc21` (centres unmarked) gave a remaining activity of 107%.
`N#CC(C#N)=C(N)/C(C#N)=C/c1ccc(O)cc1` gave a remaining activity of 90.8%.
With `NCCNc1ncc(C(N)=O)c(Nc2cccc(C(F)(F)F)c2)n1` the remaining activity was 98.5%.
`Cn1c2ccccc2c2c3c(c4c5ccccc5n(CCC#N)c4c21)CNC3=O` gave a remaining activity of 103%.
With `Oc1ccc(-c2nc(-c3ccncc3)c(-c3ccc(F)cc3)[nH]2)cc1` the remaining activity was 31.1%.
For `CC(C)[C@H](CO)Nc1nc(Nc2cc(N)cc(Cl)c2)c2ncn(C(C)C)c2n1`, the remaining activity was 82.4%.
The remaining activity of `COc1cc2ncnc(Nc3ccc(Oc4ccccc4)cc3)c2cc1OC` is reported as 73.3%.
For `Cc1ccc(Nc2nccc(N(C)c3ccc4c(C)n(C)nc4c3)n2)cc1S(N)(=O)=O`, the remaining activity was 76.5%.
`Cn1sc(=O)n(Cc2ccccc2)c1=O` gave a remaining activity of 94.6%.
The remaining activity of `Cc1ccc(NC(=O)c2ccc(CN3CCN(C)CC3)cc2)cc1Nc1nc(-c2cccnc2)cs1` is reported as 102%.
`COc1ccc(OC)c2c(=S)c3ccccc3[nH]c12` gave a remaining activity of 122%.

Sample 4
Target: Calcium/calmodulin-dependent protein kinase type II subunit alpha (CAMK2A, Homo sapiens, UniProt Q9UQM7)
Chain of UniProt Q9UQM7 (whole entry, looked up): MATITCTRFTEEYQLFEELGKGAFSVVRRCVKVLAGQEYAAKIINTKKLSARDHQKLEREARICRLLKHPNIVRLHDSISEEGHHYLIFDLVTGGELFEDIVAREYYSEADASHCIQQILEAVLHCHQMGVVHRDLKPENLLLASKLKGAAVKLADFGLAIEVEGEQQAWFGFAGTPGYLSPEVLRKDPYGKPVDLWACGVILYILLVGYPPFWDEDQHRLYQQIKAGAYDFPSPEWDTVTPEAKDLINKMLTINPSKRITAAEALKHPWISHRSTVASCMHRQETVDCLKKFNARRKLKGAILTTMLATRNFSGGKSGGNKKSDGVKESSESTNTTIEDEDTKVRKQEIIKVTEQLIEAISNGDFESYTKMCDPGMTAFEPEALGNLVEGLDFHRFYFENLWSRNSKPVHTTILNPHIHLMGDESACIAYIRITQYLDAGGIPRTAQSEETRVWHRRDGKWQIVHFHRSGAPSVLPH
Effect on: enzyme activity
Action: inhibitor
Tested at: 10 µM
With `CC(C)=CCC/C(C)=C/CC/C(C)=C/C=C/C(C)=C/C(=O)O` the inhibition was -13%.
For `C=C(c1ccc(C(=O)O)cc1)c1cc2c(cc1C)C(C)(C)CCC2(C)C`, the inhibition was 5%.
For `OC[C@@H](O)[C@@H](O)[C@H](O)[C@H](O)CO` (racemic), the inhibition was 17%.
`COc1ccccc1C(=O)O` gave an inhibition of -3%.
With `C[C@@H]1CC[C@]2(C(=O)O)CC[C@]3(C)C(=CC[C@@H]4[C@@]5(C)CC[C@H](O[C@@H]6OC[C@H](O)[C@H](O)[C@H]6O)C(C)(C)[C@@H]5CC[C@]43C)[C@@H]2[C@]1(C)O` the inhibition was -5%.
For `O=c1c(-c2ccc(O[C@@H]3O[C@H](CO)[C@@H](O)[C@H](O)[C@H]3O)cc2)coc2cc(O)cc(O)c12`, the inhibition was -7%.
`Nc1nc(=O)n([C@H]2C[C@H](O)[C@@H](CO)O2)cc1CO` has an inhibition of -18%.

A few entries again (sample 3):
With `NCCNc1ncc(C(N)=O)c(Nc2cccc(C(F)(F)F)c2)n1` the remaining activity was 98.5%.
`Cn1c2ccccc2c2c3c(c4c5ccccc5n(CCC#N)c4c21)CNC3=O` gave a remaining activity of 103%.
With `Oc1ccc(-c2nc(-c3ccncc3)c(-c3ccc(F)cc3)[nH]2)cc1` the remaining activity was 31.1%.
For `CC(C)[C@H](CO)Nc1nc(Nc2cc(N)cc(Cl)c2)c2ncn(C(C)C)c2n1`, the remaining activity was 82.4%.
The remaining activity of `COc1cc2ncnc(Nc3ccc(Oc4ccccc4)cc3)c2cc1OC` is reported as 73.3%.
For `Cc1ccc(Nc2nccc(N(C)c3ccc4c(C)n(C)nc4c3)n2)cc1S(N)(=O)=O`, the remaining activity was 76.5%.
